Measurements collected from several papers.
Each line is one published result; not all experiments were run side by side. ± marks the error that the study gave.
PLG: Plasminogen (PLG, Homo sapiens, UniProt P00747)
UniProt P00747, sequence (whole entry, looked up): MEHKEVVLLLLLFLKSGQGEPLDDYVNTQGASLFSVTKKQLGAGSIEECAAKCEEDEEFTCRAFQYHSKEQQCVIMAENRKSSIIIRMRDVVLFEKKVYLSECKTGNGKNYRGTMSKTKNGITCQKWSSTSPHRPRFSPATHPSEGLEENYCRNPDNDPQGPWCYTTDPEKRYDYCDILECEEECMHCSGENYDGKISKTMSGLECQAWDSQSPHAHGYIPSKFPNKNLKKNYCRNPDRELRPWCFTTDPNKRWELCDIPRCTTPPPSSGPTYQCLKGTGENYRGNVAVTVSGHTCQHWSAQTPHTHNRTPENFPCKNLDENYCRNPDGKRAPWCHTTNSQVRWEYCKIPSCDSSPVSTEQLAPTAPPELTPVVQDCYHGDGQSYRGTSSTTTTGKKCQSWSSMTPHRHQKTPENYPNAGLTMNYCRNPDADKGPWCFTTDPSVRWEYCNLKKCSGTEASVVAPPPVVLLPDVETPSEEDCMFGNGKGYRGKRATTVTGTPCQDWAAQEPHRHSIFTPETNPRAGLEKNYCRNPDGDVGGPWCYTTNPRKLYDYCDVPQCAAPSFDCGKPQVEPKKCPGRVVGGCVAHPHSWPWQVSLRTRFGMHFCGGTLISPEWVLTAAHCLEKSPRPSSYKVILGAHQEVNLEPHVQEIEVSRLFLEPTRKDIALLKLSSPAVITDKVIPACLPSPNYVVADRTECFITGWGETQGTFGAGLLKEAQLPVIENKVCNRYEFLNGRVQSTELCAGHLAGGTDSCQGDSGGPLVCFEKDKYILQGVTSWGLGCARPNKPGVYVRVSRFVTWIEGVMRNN
PSMB5: Proteasome Macropain subunit MB1 (PSMB5, Homo sapiens, UniProt P28074)
UniProt P28074, sequence (whole entry, looked up): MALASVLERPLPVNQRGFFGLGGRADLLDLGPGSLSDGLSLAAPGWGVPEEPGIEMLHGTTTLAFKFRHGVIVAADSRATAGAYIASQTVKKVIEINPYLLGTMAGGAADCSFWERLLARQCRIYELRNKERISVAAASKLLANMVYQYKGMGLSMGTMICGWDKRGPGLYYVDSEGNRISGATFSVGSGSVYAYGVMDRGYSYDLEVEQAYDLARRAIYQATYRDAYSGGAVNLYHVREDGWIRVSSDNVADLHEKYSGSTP
CSNK1D: Casein kinase I isoform delta (CSNK1D, Homo sapiens, UniProt P48730)
UniProt P48730, sequence (whole entry, looked up): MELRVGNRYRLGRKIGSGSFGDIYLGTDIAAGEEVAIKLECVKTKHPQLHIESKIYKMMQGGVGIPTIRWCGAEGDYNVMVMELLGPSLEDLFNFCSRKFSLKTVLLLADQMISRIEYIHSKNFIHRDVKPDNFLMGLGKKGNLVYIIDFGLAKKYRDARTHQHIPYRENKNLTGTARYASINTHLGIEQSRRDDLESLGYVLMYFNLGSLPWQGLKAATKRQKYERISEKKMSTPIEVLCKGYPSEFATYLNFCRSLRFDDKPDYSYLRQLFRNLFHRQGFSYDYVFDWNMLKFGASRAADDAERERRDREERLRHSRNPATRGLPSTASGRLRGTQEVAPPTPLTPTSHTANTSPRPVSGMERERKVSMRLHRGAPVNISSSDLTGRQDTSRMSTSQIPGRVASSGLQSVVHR
Dihydrofolate reductase type 2: Dihydrofolate reductase type 2 (Escherichia coli, UniProt P00383)
UniProt P42568, sequence (whole entry, looked up): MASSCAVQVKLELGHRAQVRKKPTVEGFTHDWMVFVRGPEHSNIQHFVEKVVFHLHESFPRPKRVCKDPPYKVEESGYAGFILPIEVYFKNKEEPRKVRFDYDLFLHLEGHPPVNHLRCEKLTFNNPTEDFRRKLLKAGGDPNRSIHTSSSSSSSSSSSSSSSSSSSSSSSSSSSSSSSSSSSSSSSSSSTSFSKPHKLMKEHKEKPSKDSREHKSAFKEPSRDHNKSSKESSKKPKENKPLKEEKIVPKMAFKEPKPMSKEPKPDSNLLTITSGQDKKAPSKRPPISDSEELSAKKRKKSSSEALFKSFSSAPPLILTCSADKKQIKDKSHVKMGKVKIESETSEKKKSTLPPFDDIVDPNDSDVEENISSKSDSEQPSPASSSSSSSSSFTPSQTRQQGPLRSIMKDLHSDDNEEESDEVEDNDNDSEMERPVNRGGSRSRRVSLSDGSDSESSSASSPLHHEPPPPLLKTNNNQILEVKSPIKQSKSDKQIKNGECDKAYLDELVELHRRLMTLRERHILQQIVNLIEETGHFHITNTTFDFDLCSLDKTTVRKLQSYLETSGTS
UniProt P00383, sequence (whole entry, looked up): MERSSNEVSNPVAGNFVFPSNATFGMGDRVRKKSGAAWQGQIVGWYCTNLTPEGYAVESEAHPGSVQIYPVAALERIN
UniProt Q15717, sequence (whole entry, looked up): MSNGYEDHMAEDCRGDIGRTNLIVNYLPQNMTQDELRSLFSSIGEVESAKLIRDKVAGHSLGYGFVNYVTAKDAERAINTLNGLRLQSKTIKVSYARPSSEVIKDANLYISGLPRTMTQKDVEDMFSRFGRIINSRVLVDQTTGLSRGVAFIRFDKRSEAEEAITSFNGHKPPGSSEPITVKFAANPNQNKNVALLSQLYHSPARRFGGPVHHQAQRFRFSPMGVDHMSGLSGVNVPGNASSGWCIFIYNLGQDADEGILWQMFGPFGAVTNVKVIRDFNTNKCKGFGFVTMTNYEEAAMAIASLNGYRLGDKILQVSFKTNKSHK
UniProt P10275, sequence (whole entry, looked up): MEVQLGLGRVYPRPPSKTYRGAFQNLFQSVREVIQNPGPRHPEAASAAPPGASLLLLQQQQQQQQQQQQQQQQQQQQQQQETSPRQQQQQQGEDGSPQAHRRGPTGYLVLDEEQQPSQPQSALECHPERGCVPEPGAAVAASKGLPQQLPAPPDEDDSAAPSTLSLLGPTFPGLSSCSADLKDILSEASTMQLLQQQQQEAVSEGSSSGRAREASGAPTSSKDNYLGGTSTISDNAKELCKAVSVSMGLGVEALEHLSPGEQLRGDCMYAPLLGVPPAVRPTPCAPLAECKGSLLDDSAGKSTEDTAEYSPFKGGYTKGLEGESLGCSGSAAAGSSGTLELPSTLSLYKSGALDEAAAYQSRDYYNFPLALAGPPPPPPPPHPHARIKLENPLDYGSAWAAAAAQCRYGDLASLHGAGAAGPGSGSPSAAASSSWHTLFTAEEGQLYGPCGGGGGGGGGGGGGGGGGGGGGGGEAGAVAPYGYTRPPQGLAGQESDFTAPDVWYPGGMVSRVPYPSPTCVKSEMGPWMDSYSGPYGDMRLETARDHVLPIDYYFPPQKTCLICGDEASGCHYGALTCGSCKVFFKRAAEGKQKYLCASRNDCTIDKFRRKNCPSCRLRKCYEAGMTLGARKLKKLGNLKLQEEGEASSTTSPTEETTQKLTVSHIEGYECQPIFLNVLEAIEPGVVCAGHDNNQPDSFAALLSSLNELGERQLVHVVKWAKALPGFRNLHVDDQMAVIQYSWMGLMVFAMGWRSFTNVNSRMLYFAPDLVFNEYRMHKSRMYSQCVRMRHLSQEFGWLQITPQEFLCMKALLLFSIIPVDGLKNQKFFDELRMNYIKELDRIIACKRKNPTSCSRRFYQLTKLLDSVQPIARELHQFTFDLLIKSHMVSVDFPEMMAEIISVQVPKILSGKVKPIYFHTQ
UniProt P21980, sequence (whole entry, looked up): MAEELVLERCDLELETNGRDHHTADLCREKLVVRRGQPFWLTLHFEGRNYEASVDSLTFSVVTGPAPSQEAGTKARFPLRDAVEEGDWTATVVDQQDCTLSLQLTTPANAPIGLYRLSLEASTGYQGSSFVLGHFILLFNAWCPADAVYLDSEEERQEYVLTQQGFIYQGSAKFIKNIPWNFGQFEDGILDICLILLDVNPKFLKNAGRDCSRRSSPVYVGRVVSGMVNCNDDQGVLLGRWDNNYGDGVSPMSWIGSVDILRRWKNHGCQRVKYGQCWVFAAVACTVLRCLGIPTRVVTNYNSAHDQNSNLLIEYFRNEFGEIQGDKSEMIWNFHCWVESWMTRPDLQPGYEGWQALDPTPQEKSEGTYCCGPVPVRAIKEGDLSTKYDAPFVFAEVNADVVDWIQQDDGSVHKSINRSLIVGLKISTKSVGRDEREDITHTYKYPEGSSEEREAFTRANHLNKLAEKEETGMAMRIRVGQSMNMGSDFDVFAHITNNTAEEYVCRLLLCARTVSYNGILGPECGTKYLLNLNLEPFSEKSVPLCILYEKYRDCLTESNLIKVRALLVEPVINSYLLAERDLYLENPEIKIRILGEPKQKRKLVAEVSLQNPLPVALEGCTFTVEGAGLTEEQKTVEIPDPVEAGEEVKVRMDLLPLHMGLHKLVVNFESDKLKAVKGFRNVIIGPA
UniProt P54855, sequence (whole entry, looked up): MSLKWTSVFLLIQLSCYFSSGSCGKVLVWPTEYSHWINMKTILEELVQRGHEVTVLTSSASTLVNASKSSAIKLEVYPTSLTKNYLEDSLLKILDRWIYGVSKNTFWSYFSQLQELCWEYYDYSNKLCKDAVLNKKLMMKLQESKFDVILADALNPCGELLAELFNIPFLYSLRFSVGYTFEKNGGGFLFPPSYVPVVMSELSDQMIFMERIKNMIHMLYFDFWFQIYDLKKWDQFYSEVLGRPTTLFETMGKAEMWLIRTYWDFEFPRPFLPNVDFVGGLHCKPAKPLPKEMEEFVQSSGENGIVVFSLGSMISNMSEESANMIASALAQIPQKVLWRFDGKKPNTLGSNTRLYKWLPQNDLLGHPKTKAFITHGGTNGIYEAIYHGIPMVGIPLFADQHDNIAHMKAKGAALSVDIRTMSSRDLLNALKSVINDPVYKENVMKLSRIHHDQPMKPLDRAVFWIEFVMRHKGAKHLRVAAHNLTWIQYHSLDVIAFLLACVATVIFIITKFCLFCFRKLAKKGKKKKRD
UniProt P20618, sequence (whole entry, looked up): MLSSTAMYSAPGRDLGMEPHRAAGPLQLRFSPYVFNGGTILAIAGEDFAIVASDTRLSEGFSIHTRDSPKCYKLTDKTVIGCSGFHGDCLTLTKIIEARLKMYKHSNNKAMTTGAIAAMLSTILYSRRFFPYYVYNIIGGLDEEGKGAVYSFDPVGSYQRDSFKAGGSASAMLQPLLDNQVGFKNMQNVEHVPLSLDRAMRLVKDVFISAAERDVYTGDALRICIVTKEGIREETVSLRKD

SMILES	target	test	test system	setting	IC50
O=C1C=Cc2c(c(-c3ccoc3)cn2S(=O)(=O)c2ccccc2)C1=O	ELAV-like protein 1, RRM1-RRM2 domains (ELAVL1, Homo sapiens, UniProt Q15717)	HuR-RNA complex formation, REMSA	–	with: 1 nM labelled RNA probe	10.3 µM
CC(C)NC(=O)COc1cccc(-c2nc(Nc3ccc4[nH]ncc4c3)c3ccccc3n2)c1	UDP-glucuronosyltransferase 2B15 (UGT2B15, Homo sapiens, UniProt P54855)	enzyme activity, inhibitor	recombinant microsomes	with: diclofenac	7.98 µM
CC1(C(F)F)NC(=O)N(c2ccc(F)c(C(F)(F)F)c2)C1=O (stereo not shown)	Androgen receptor (AR, Homo sapiens, UniProt P10275)	reporter gene, antagonist	LAPC4	24 h, with: DHT 10 nM	4.2 µM
COc1ccc(-c2ccc3ncc4c(c3c2)n([C@@H]2CCN(C)CC2(F)F)c(=O)n4C)cn1	DNA-dependent protein kinase catalytic subunit (PRKDC, Homo sapiens, UniProt P78527)	DNA-PKcs S2056 autophosphorylation, inhibitor, in-cell western	HT-29	with: 10 Gy radiation	0.169 ± 0.0134 µM
Cc1cnn(Cc2ccc(Cn3cc(C(=O)NCc4ccc(CN)cc4)cn3)cc2)c1	PLG	–	–	–	27 µM
COc1ccc(C[C@H](NC(=O)[C@H](C)NC(=O)CN2CCOCC2)C(=O)N[C@@H](CC2CCC(OC)CC2)C(=O)[C@@]2(C)CO2)cc1 (stereo partly shown)	PSMB5	competitive ABPP	Raji cell lysate	–	> 10 µM
c1ccc(CN(CCN(Cc2ccccn2)Cc2ccccn2)Cc2ccccn2)cc1	PSMB5	chymotrypsin-like activity, inhibitor, purified 20S proteasome	–	30 min, pH 7.4, 37 °C, with: 20 µM Suc-LLVY-AMC	96 µM
Cc1ncc(C(=O)N[C@@H](CC(C)C)C(=O)N[C@@H](CC2CCC3CCCCC3C2)C(=O)N[C@H](/C=C/S(C)(=O)=O)Cc2ccc(CN)cc2)s1 (stereo partly shown)	PSMB5	inhibitor, competitive ABPP	Raji cell lysate	constitutive proteasome β5c	1.2 µM
COc1ccnc(CNC(=O)c2cn(Cc3ccc(Cn4ccccc4=O)cc3)nc2C2CC2)c1F	PLG	–	–	–	> 40 µM
COc1ccc([N+](=O)[O-])cc1C(=O)Nc1ccc(OCCF)cc1	Peroxisome proliferator-activated receptor gamma, with RXR (PPARG, Homo sapiens, UniProt P37231)	reporter gene, antagonist, PPRE-TK-luciferase	transfected HepG2	24 h, with: GW1929	> 2 µM
Fc1ccc(-c2nc(-c3ccccc3Cl)[nH]c2-c2ccncc2)cc1	CSNK1D	inhibitor	–	–	0.0089 ± 0.0048 µM
COC(=O)c1ccc2nc(-c3ccc(OCCCN4CCN(C)CC4)cc3)[nH]c2c1	Dihydrofolate reductase type 2	enzyme activity	–	pH 7	> 500 µM
C[C@@H]1CCCN1c1ccc(-c2nc3ccc(C(=O)NC4CCNCC4)cc3nc2-c2ccc(N3CCC[C@H]3C)cc2)cc1	Protein AF-9, with DOT1L (Homo sapiens, UniProt P42568)	DOT1L binding, AlphaLISA	–	–	1.1 µM
Fc1ccc(-c2nc(-c3ccc4ccccc4c3F)[nH]c2-c2ccncc2)cc1	CSNK1D	inhibitor	–	–	0.015 ± 0.003 µM
CC(C)C[C@H](NC(=O)[C@H](CCc1ccccc1)NC(=O)CN1CCOCC1)C(=O)N[C@@H](Cc1ccccc1)C(=O)NN(CC(C)C)C(=O)/C=C/C(=O)OCc1ccccc1	Proteasome component C5/PSMB5 (Homo sapiens, UniProt P20618+P28074)	chymotrypsin-like activity, inhibitor	human 20S proteasome	with: Suc-LLVY-AMC 100 µM	1.3 ± 0.5 µM
Nc1nc(SCC(=O)Nc2ccc3c(c2)OCO3)[nH]c(=O)c1NC(=O)c1ccc(F)c(F)c1	Proto-oncogene tyrosine-protein kinase receptor Ret (RET, Homo sapiens, UniProt P07949)	kinase activity, inhibitor	–	replicate two, with: 1 µM ATP, poly(Glu,Tyr)	73 µM
c1cc(N2CCCC2)ccc1-c1cc2ncc(OCC3CCNCC3)nc2cc1-c1ccc(N2CCCC2)cc1	Protein AF-9, with AF4 (Homo sapiens, UniProt P42568)	AlphaScreen	–	–	0.6 ± 0.16 µM
O=C(NCCO)c1ccc2nc(-c3ccc(OCCCOc4ccc(-c5nc6ccc(C(=O)NCCO)cc6[nH]5)cc4Br)c(Br)c3)[nH]c2c1	Dihydrofolate reductase type 2	enzyme activity	–	pH 7	> 50 µM
CC(C)N(CCC(=O)c1ccc2ccccc2c1)Cc1ccccc1	Protein-glutamine gamma-glutamyltransferase (TGM2, Homo sapiens, UniProt P21980)	enzyme activity, inhibitor	–	0.02% Triton X-100, without DTT	no effect

Excerpt of the above:
SMILES	target	test	test system	setting	IC50
Nc1nc(SCC(=O)Nc2ccc3c(c2)OCO3)[nH]c(=O)c1NC(=O)c1ccc(F)c(F)c1	Proto-oncogene tyrosine-protein kinase receptor Ret (RET, Homo sapiens, UniProt P07949)	kinase activity, inhibitor	–	replicate two, with: 1 µM ATP, poly(Glu,Tyr)	73 µM
